Measured values pooled from the literature.
Lines come from different studies, so protocols differ. Values joined by “and” are separate records of one study, mostly repeats; a detail may differ. ± marks the error that the study gave.
rep H3304A main protease H41A: Replicase polyprotein 1ab, main protease H41A (rep, Severe acute respiratory syndrome coronavirus 2, UniProt P0DTD1, H3304A)

With `CC(C)(C)[C@H](NC(=O)NC1(CS(=O)(=O)C(C)(C)C)CCCCC1)C(=O)N1C[C@H]2[C@@H]([C@H]1C(=O)N[C@H](C#N)C[C@@H]1CCNC1=O)C2(C)C` the delta Tm was 13.2 °C (rep H3304A main protease H41A; binder, thermal shift).
`Clc1ccc(CNC23CC4CC(CC(C4)C2)C3)s1` has an EC50 of 3.5 µM (Influenza A virus; A/WSN/33 M2-S31N).
`CCn1ccc(-c2cc(-c3cnn(C)c3)cc([C@@H](C)NC(=O)c3cc(OCCN(C)C)ccc3C)c2)n1` — result for “E167G (GGA) mutation frequency”: 88.6% and 75.7% and 85% and 92.7% (SARS-CoV-2; WA1 lineage passage 11; concentration not given).
The EC90 of `CC(C)C(=O)OC[C@H]1O[C@@](C#N)(n2ccc(N)nc2=O)[C@H](O)[C@@H]1O` is reported as 10.4 ± 2.6 µM (SARS-CoV-2 Omicron; viral replication; Calu-3).
`CC1OC(OC2C(OC(=O)C34CCC(C)(C)CC3C3=CCC5C6(C)CCC(OC7OC(CO)C(O)C(O)C7O)C(C)(C)C6CCC5(C)C3(C)CC4O)OCC(O)C2O)C(O)C(O)C1OC1OCC(O)C(OC2OCC(O)C(OC3OCC(O)C(O)C3O)C2O)C1O` (centres unmarked) gave an IC50 of 1.67 µM (SARS-CoV-2; viral infection; Vero cells, delta B.1.617.2).
With `Oc1ccc(CCCCCCCCC(O)c2c(O)cccc2O)cc1O` (centres unmarked) the EC50 was 6.8 µM (SARS-CoV-2; viral replication, MTT; HEK293T ACE2, Gamma P.1).
For `COc1ccc2nccc(CC[C@H]3OC[C@H](NCc4ccc5c(c4)OCCO5)CO3)c2c1`, the MIC was 16 µg/mL (Mycobacterium tuberculosis; H37Rv katG deletion).
For `Oc1cc(Cn2ccnn2)ccc1Oc1ccc(Cl)cc1Cl`, the MIC was 40 µg/mL (Mycobacterium tuberculosis; V2475).
With `CC(C)[C@H](CNC(=O)[C@@H](NC(=O)c1cccc(-c2ccccc2)n1)[C@@H](C)O)B(O)O` the inhibition was 76% (Severe acute respiratory syndrome coronavirus 2; viral replication; 10 µM).
For `COc1ccc2nccc(CC[C@H]3OC[C@H](NC(=O)c4ccc5c(n4)NC(=O)CS5)CO3)c2c1`, the MIC was 0.125 µg/mL (Mycobacterium tuberculosis; H37Rv katG deletion).
With `CC(CCC(=O)[O-])C1CCC2C3CCC4CC(O)CCC4(C)C3CCC12C.C[N+](C)(C)CC(O)CC(=O)O` (centres unmarked) the EC50 was 21.9 ± 5.24 µg/mL (SARS-CoV-2 Delta variant; virucidal activity; A549-hACE2, B.1.617.2; 72 h post infection, virus pretreated 1 h, 37 °C).
The MIC of `COc1ccc2ncc(F)c(C(O)C[C@H]3OC[C@H](NCc4ccc5c(c4)OCCO5)CO3)c2c1` (some centres unmarked) is reported as 4 µg/mL (Mycobacterium tuberculosis; H37Rv katG deletion).
`N#Cc1ccc(Oc2ccc(Cl)cc2Cl)c(O)c1` has an MIC of 50 µg/mL (Mycobacterium tuberculosis; V2475).
`CCCCN(CCCC)CC(O)COc1c2ccoc2c(OC)c2oc(CC)cc(=O)c12` (centres unmarked) gave an MIC of 8 µg/mL (Mycobacterium tuberculosis; Alamar blue; 22/22, SIRE and linezolid resistant; 21 days, 37 °C).
`COc1ccc2ncc(F)c(C[C@H](O)[C@H]3OC[C@H](NCc4ccc(Cl)c(Cl)c4)CO3)c2n1` has an MIC of 0.125 µg/mL (Mycobacterium tuberculosis; H37Rv katG deletion).
`CC(C)CC(C(=O)N1CC2(CC1C#N)C(=O)Nc1ccccc12)N(C)C(=O)c1cc2c(F)cc(F)c(F)c2[nH]1` (centres unmarked) gave an inhibition of 99.9% and 100% (SARS-CoV-2; viral replication, infectious virus; Vero E6-TMPRSS2, Omicron variant; 0.9 µM).
For `N=C(N)NCCC[C@H](NC(=O)[C@@H]1CCCN1C(=O)[C@H](N)Cc1ccccc1)C(=O)CCl`, the EC50 was > 50 µM (Severe acute respiratory syndrome coronavirus 2; viral entry, inhibitor; A549-hACE2-TMPRSS2; pseudovirus).
The inhibition of `O=c1cc(-c2ccc(O)cc2)oc2c([C@@H]3OC[C@H](O)[C@H](O)[C@H]3O)c(O)c([C@@H]3O[C@H](CO)[C@@H](O)[C@H](O)[C@H]3O)c(O)c12` is reported as 50.9% (rep H3304A main protease H41A; 3CL protease activity, inhibitor; concentration not given, 3CLpro H41A mutant).
`COc1ccc(CNc2ccc(C34CC5CC(CC(C5)C3)C4)cc2)c(O)c1` gave a Kd of > 100 µM (Matrix protein 2 (Influenza A virus, UniProt P0DOF5, S31N); binding).
`CC(=O)Oc1ccc(CCCCCCCCC(=O)c2c(OC(C)=O)cccc2OC(C)=O)cc1OC(C)=O` has a selectivity index of 4.5 (SARS-CoV-2; HEK293T ACE2, Delta B.1.617.2; baseline: CC50 over EC50).
`NC(=S)N/N=C/c1ccc(OC(=O)CC2SC(=O)NC2=O)cc1` (centres unmarked) has an MIC of 31.6 to 45.7 µM (Mycobacterium tuberculosis; Alamar blue; MDR 210).
With `O=c1[nH]cnc2c(C3NC(COP(=O)(O)OP(=O)(O)OP(=O)(O)O)C(O)C3O)c[nH]c12` (centres unmarked) the EC90 was 1.46 µM (Severe acute respiratory syndrome coronavirus 2; viral replication, inhibitor; Vero C1008; 48 h).
The MIC of `COc1ccc2nccc(CC[C@H]3OC[C@H](NC(=O)c4ccc(Cl)c(Cl)c4)CO3)c2c1` is reported as 0.5 µg/mL (Mycobacterium tuberculosis; H37Rv katG deletion).
`O=C(NC1CCN(c2ncnc3[nH]cnc23)CC1)c1cccc(NS(=O)(=O)c2ccc(C(F)(F)F)cc2)c1` gave a ΔTm of 5.4 °C and 6.1 °C (Replicase polyprotein 1ab, nsp14 W292A (rep, Severe acute respiratory syndrome coronavirus 2, UniProt P0DTD1, W6217A); thermal shift; SARS-CoV-2).
`CC(C)C[C@@H]1NC(=O)[C@H](C(C)C)NC(=O)[C@H](C)NC(=O)[C@H](Cc2ccc(O)cc2)NC(=O)[C@H](CCC(N)=O)NC(=O)[C@H](CC(C)C)NC(=O)[C@@H](Cc2ccc(O)cc2)NC(=O)C[Se]C[C@@H](C(N)=O)NC(=O)[C@H](CCC(=O)O)NC(=O)[C@H](CCCNC(=N)N)NC(=O)[C@H](CCCNC(=N)N)NC(=O)[C@H](CCCCN)NC(=O)[C@H](Cc2c[nH]cn2)NC(=O)[C@H](CCCNC(=N)N)NC1=O` has an IC50 of 0.056 µM (Replicase polyprotein 1ab, main protease (rep, Severe acute respiratory syndrome coronavirus 2, UniProt P0DTD1); enzyme activity, inhibitor).
`COc1ccc2nccc(CC[C@H]3OC[C@H](NC(=O)c4ccc5c(c4)NC(=O)CO5)CO3)c2c1` gave an MIC of 0.125 µg/mL (Mycobacterium tuberculosis; H37Rv katG deletion).
With `O=C(CCCCCCCCCCc1ccc(O)c(O)c1)c1c(O)cccc1O` the selectivity index was 4.7 (SARS-CoV-2; HEK293T ACE2, Alpha B.1.1.7; baseline: CC50 over EC50).
The EC50 of `Cc1ccc(CNC23CC4CC(CC(C4)C2)C3)s1` is reported as 3.3 µM (Influenza A virus; A/WSN/33 M2-S31N).
With `COc1ccc2ncc(F)c(C[C@H](O)[C@H]3OC[C@H](NCc4ccc(C)cc4)CO3)c2n1` the MIC was 0.5 µg/mL (Mycobacterium tuberculosis; H37Rv katG deletion).
`O=C(CCCCCCc1ccc(O)c(O)c1)c1c(O)cccc1O` has a selectivity index of 2.3 (SARS-CoV-2; HEK293T ACE2, Delta B.1.617.2; baseline: CC50 over EC50).
`COc1ccc2ncc(F)c(C[C@H](O)[C@H]3OC[C@H](NCc4cc5c(nn4)OCCS5)CO3)c2n1` gave an MIC of 2 µg/mL (Mycobacterium tuberculosis; H37Rv katG deletion).
For `N=C(N)SCc1ccc(B(O)O)cc1`, the EC50 was 66 µM (Severe acute respiratory syndrome coronavirus 2; viral entry, inhibitor; A549-hACE2-TMPRSS2; pseudovirus).

A few entries again:
`N#Cc1ccc(Oc2ccc(Cl)cc2Cl)c(O)c1` has an MIC of 50 µg/mL (Mycobacterium tuberculosis; V2475).
`CCCCN(CCCC)CC(O)COc1c2ccoc2c(OC)c2oc(CC)cc(=O)c12` (centres unmarked) gave an MIC of 8 µg/mL (Mycobacterium tuberculosis; Alamar blue; 22/22, SIRE and linezolid resistant; 21 days, 37 °C).
